Measurements gathered from unrelated publications.
Numbered parts are unrelated; each lists some results of a single study. Positions count from the first letter of the parent shown.

Sample 1 — method: DHFR PCA, deep sequencing; medium: yeast; together with: (+)-ABA 2500 µM; relative to: wild-type fitted maximum; reading: higher = stronger binding
Target: ABI1, truncated, D143A, DHFR fusion (Arabidopsis thaliana)
Setting: methotrexate growth selection, single substitutions
Starting sequence: PYL1, truncated, DHFR fusion (Arabidopsis thaliana); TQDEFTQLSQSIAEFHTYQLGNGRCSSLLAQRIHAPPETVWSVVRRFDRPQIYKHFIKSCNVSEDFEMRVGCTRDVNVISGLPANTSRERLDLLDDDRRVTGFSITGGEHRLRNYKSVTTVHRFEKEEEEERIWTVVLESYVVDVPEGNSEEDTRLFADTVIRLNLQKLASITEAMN
`A175T`: “relative binding score” 97.3%.
For `D159K`, “relative binding score” read 83.1%.
Under “relative binding score”, `E139C` is recorded as 98.4%.
For `L91K`, “relative binding score” read 13.7%.
`E151I` — result for “relative binding score”: 96.8%.
For `R32I`, “relative binding score” read 85.4%.
`S104I`: “relative binding score” 88.6%.
`V76D` — result for “relative binding score”: 3.76%.

Sample 2 — method: Sort-seq; measured: YFP reporter; medium: E. coli; setting: PhoQ-PhoP variant library; together with: 10 µM Mg2+; relative to: high Mg2+ state; reading: higher = stronger signaling
Substance: PhoQ, residues 284 288 289 292 302 303 SSYNSA
The fold induction was 16.9 (PhoP, residues 12 14 15 18 19 TQAML (Escherichia coli, UniProt P23836)).
For PhoP, residues 12 14 15 18 19 NQCAL (Escherichia coli, UniProt P23836): fold induction read 12.3.
For PhoP, residues 12 14 15 18 19 LHTVL (Escherichia coli, UniProt P23836): fold induction read 24.9.

Sample 3 — method: protein-binding microarray; molecule type: double-stranded DNA, one strand shown; medium: in vitro; concentration: 250 nM; setting: 60-bp whole probe; together with: salmon DNA 0.4 mg/ml; relative to: random background probes; reading: higher = stronger binding; shared flanks, not repeated: GCCTAGCAC … GTCTTGATTCGCTTGACGCTGCTG
Target: Interferon regulatory factor 5, full length, phosphomimetic (IRF5, Homo sapiens, UniProt Q13568-2, residues 1-514, K96S/S451D/S453D/S456D/S462D)
With `TACAGGATGGTTTTCAGAGAGTGCTAG` the log fluorescence was -0.0337 z-score.
The log fluorescence of `TTAGGAATCGACACTGGGTTAGTGCTA` is reported as 0.309 z-score.
`TTAGATTTCAGACTGAATTAGTGCTAG` gave a log fluorescence of 0.752 z-score.
For `GACGGACTGCTTATCTTGACGTGCTAG`, the log fluorescence was -0.647 z-score.
For `GACGGTCTCCTTCTCCTGTCGTGCTAG`, the log fluorescence was 0.197 z-score.
With `TTAGGCTTCCTTCTCCTTTAGTGCTAG` the log fluorescence was -0.19 z-score.
`GACGGACTTCTTTTCCTGACGTGCTAG` gave a log fluorescence of -0.0533 z-score.
`GACGGACTGCTTATCCTGATGTGCTAG` has a log fluorescence of -0.355 z-score.
`GATGGTCTCGGTCTCGGGACGTGCTAG` gave a log fluorescence of 0.523 z-score.
`TTAGGTTTCGGACTGGGTTTGTGCTAG` gave a log fluorescence of 5.31 z-score.
`TTAGATATCGAGTTTCGATTAGTGCTA` gave a log fluorescence of 9.16 z-score.
`TTGTGTCTGGGCATTTTTTTAGTGCTA` gave a log fluorescence of -0.281 z-score.
`TTAGGTTTCGACCTTCGGTTAGTGCTA` has a log fluorescence of 6.67 z-score.
For `ACCCATCTCCAGTAGCCTAGCGTGCTA`, the log fluorescence was -0.148 z-score.
`TTTCCTTTGCCTCTGAGGCTGTGCTAG` gave a log fluorescence of 2.85 z-score.

Sample 4 — target: CCNF, cyclin fold, Cln2 fusion (human); method: yeast growth competition, sequencing; medium: yeast; setting: strong parent motif; relative to: not given; reading: higher = stronger binding
Starting sequence: RBL1 docking peptide (human); GSAKRRLFGEDPP; partner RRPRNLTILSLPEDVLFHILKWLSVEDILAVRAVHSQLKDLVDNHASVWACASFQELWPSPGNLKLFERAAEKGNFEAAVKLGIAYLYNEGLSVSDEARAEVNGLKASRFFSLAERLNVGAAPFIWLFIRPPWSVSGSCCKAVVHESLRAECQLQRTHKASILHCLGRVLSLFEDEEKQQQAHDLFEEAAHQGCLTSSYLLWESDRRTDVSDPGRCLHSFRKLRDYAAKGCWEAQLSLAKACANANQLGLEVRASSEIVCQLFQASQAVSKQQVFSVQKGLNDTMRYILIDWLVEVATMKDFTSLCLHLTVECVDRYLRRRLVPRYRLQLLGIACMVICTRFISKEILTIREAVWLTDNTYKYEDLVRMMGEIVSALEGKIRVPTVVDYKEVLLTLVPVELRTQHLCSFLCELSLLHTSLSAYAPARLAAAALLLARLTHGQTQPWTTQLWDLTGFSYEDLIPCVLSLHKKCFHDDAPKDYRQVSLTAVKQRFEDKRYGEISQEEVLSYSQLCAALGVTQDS
Under “normalised enrichment score”, `G1F` is recorded as 10.8.
`G9A` — result for “normalised enrichment score”: 8.26.
For `K4W`, “normalised enrichment score” read 2.18.
`E10F` — result for “normalised enrichment score”: 7.47.
For `S2F`, “normalised enrichment score” read 6.84.
`D11M` — result for “normalised enrichment score”: 7.46.
Under “normalised enrichment score”, `G1N` is recorded as 8.01.
`R5F`: “normalised enrichment score” -0.118.
Under “normalised enrichment score”, `L7N` is recorded as -0.276.
`F8C`: “normalised enrichment score” 0.228.

Some of these lines once more (sample 2):
The fold induction was 16.9 (PhoP, residues 12 14 15 18 19 TQAML (Escherichia coli, UniProt P23836)).
For PhoP, residues 12 14 15 18 19 NQCAL (Escherichia coli, UniProt P23836): fold induction read 12.3.
For PhoP, residues 12 14 15 18 19 LHTVL (Escherichia coli, UniProt P23836): fold induction read 24.9.
